Measurements pooled from the literature.
A part holds a random share of what one study measured.

Study 1
Target: Histone acetyltransferase KAT6A, winged helix 2, GST fusion (KAT6A, Homo sapiens, UniProt Q92794, residues 85-181)
Method: protein binding microarray
Form: double-stranded DNA, one strand shown
Matrix: in vitro
Tested at: not given
Notes: 8-mer, flanks averaged, mean of 2 arrays, mostly near background
Baseline: not given
Reading: higher = stronger binding
Quantity: E-score
Target sequence (chain): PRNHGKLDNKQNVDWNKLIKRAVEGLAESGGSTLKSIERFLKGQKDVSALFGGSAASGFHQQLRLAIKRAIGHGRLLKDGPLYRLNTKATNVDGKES
Oligonucleotide = GCCGTGAC; result = -0.023
Oligonucleotide = AAGTGCGC; result = 0.036
Oligonucleotide = AACGCCGC; result = 0.0457
Oligonucleotide = CCAACTGA; result = -0.0824
Oligonucleotide = AAGGGACG; result = -0.134

Study 2
Target: POU domain, class 5, transcription factor 1, POU domain (Pou5f1, Mus musculus, UniProt P20263, residues 131-289)
Chain of UniProt P20263 (131-289, looked up): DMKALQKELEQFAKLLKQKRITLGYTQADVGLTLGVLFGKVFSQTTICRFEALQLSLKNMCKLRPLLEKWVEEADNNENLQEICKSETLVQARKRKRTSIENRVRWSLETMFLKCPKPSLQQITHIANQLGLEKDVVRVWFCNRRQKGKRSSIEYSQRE
Method: Spec-seq
Form: double-stranded DNA, one strand shown
Matrix: in vitro
Tested at: not given
Notes: whole probe, mean of replicates
Baseline: not given
Reading: lower = stronger binding
Quantity: relative binding energy
All sequences stand within: GAGTCGTCTCGTCAGCAC … CCGTAGAGCACTCAGGTC
Oligonucleotide = CCATTAAT; result = 0.0888 ln ratio
Oligonucleotide = ATGCTGCG; result = 0.747 ln ratio
Oligonucleotide = ATTGGGAT; result = 0.631 ln ratio
Oligonucleotide = ATCCTAAT; result = 0.391 ln ratio
Oligonucleotide = ATTTGAAT; result = -1.2 ln ratio
Oligonucleotide = CCCTTAAT; result = 0.674 ln ratio

Study 3
Target: Prothrombin, mature alpha-thrombin (F2, Homo sapiens, UniProt P00734)
Method: aptamer microarray, sandwich
Form: DNA with 2'F-ANA
Matrix: in vitro
Tested at: 200 nM
Notes: whole 15-mer aptamer, many near background
With: Cy3 exosite-II aptamer, 400 nM
Reading: higher = stronger binding
Quantity: mean fluorescence intensity
Oligonucleotide: GGTTGGTGTGGTTGG
Modification = 2'F-ANA at 1 2 3 5 8 9 13 15; result = 52.8 a.u.
Modification = 2'F-ANA at 1 8 9 10 12 13 14 15; result = 52.9 a.u.
Modification = 2'F-ANA at 1 2 5 7 9 11 12 13; result = 80.9 a.u.
Modification = 2'F-ANA at 1 5 7 9 10 12 13 14 15; result = 49.8 a.u.
Modification = 2'F-ANA at 3 4 6 7 8 12 13 14 15; result = 308 a.u.

Mixed results
Molecule = PhoQ, residues 284 288 289 292 302 303 WVSSAF; target = PhoP, residues 12 14 15 18 19 GQALL (Escherichia coli, UniProt P23836); assay = Sort-seq, measured: YFP reporter; system = E. coli; conditions = PhoQ-PhoP variant library, with: 10 µM Mg2+; how to read = baseline: high Mg2+ state, higher = stronger signaling; quantity = fold induction; result = 6.69
